Experimental data collected from several papers.
Parts stem from different laboratories: compare values within a part only.

Series 1
Target: Interferon regulatory factor 7, full length, phosphomimetic (IRF7, Homo sapiens, UniProt Q92985, residues 1-503, S101K/S471D/S472D/S475D/S476D/S477D/S483D/S484D/S487D)
Technique: protein-binding microarray
Form: double-stranded DNA, one strand shown
Sample: in vitro
Concentration: 250 nM
Notes: 60-bp whole probe
With: salmon DNA 0.4 mg/ml
Relative to: random background probes
Reading: higher = stronger binding
Endpoint: log fluorescence
All sequences stand within: GCCTAGCAC … GTCTTGATTCGCTTGACGCTGCTG
Residues (chain): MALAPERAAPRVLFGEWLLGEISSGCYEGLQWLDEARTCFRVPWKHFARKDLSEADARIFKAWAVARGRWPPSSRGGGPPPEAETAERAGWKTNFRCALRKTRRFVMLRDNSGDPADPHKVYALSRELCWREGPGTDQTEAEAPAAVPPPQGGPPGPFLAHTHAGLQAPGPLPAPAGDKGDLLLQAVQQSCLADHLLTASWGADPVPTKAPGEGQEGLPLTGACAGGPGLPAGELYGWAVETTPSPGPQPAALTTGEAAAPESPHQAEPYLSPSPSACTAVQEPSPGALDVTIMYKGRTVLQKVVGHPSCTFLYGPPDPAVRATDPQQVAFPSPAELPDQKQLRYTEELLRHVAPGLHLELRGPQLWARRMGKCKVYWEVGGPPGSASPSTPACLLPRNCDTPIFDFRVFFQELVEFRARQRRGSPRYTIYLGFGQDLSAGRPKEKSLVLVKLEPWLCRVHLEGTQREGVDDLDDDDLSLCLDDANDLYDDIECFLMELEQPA
TCAGGTCTCTTGTTCTCACTGTGCTAG: 0.683 z-score
TCATTATTCTAGCCTCCAACTGTGCTA: 1.16 z-score
TTAGGTTTCGACACTGGGTCAGTGCTA: 3.2 z-score
TTAGAACTGAGCCTCGATTAGTGCTAG: 0.00832 z-score
TTAGGACTAGGTTTCGGTTAGTGCTAG: 8.23 z-score
GACGATTGCAGACTGGAGACGTGCTAG: -0.562 z-score
GACGGTATCCTTATCTTGACGTGCTAG: -0.0185 z-score
GACGATCTCGGTTTCGAGACGTGCTAG: 4.54 z-score
TCAGGCTTTCCTTTATGACTGTGCTAG: -0.00811 z-score

Series 2
Target: Sal-like protein 4, full length isoform A (SALL4, Homo sapiens, UniProt Q9UJQ4, residues 1-1053)
Sequence of UniProt Q9UJQ4 (whole entry, looked up): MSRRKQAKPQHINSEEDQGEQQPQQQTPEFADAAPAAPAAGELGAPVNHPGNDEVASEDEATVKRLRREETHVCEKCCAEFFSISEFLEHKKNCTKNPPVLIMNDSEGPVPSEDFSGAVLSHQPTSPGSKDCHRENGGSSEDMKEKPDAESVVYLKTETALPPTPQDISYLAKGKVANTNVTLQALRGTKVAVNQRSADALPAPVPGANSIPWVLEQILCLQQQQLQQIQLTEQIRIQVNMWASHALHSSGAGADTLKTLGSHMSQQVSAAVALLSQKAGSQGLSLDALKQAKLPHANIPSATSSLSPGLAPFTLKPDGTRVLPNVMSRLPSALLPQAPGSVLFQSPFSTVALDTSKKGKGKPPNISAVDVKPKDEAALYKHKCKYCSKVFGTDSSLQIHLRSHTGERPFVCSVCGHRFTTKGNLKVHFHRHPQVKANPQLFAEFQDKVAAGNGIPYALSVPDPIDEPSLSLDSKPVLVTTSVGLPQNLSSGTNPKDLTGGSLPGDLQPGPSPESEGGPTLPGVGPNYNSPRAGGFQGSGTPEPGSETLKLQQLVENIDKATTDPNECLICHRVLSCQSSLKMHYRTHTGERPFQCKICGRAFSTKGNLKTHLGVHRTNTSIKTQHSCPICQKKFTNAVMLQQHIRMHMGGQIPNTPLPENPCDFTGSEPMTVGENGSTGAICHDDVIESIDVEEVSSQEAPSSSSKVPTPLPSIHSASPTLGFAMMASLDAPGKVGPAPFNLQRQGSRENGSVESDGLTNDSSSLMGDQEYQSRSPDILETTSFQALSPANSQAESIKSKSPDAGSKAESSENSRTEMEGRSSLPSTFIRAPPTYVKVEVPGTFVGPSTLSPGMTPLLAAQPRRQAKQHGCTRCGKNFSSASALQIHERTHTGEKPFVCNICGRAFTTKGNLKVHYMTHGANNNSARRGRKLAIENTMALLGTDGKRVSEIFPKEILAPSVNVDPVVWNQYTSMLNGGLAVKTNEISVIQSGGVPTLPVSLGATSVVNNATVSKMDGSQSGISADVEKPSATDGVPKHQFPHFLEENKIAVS
Technique: universal PBM
Form: double-stranded DNA, one strand shown
Sample: in vitro
Concentration: 600 nM
Notes: 8-mer, flanks averaged, mean of replicates
Reading: higher = stronger binding
Endpoint: E-score
AAGGTCAG: -0.147
TCATAGCA: 0.195
CGAAGGAA: 0.0719
AGCGCAAA: 0.0303
CGGTTGGC: -0.281
CGCAAGCC: -0.285
GTTCAGTA: 0.126
AGAATCGA: 0.0288
CTGATTAC: 0.12
AATGCATT: 0.308
CAGTGAAC: -0.0596
ACCGAAGT: -0.0995
TAATACCA: 0.213
CTACCGTA: 0.0617

Series 3
Target: Ras GTPase-activating protein-binding protein 1, full length (G3BP1, Homo sapiens, UniProt Q13283)
Sequence of UniProt Q13283 (whole entry, looked up): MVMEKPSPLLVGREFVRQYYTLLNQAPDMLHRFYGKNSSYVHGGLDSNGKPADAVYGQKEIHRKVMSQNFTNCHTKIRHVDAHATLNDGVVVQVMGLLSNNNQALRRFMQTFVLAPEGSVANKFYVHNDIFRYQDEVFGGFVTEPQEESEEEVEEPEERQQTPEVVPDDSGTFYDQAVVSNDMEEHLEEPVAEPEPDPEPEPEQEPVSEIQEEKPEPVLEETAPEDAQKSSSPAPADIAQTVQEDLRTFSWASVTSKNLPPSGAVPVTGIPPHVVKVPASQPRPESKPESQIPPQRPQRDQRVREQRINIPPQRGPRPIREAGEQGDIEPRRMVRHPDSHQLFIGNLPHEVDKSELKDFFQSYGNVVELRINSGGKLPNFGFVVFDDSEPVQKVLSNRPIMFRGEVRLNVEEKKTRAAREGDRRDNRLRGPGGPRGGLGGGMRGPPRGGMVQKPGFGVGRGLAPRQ
Technique: RNA Bind-n-Seq
Form: RNA
Sample: in vitro
Concentration: 200 nM
Notes: whole 134-nt RNA, ends assumed
With: 150 mM LiCl
Relative to: input library
Reading: higher = stronger binding
Endpoint: log2 enrichment
Library: 7-deaza-guanosine replaces G
All sequences stand within: GGGAGUUCUACAGUCCGACGAUC … UGGAAUUCUCGGGUGUCAAGG
UGCUAGGCAAUGGAUCACUUGGAGUCCUUUAUUGCUGAAUGUGAUCGGAGAACUGAGCUCGCCAAGAAGCGGCUGGCAGAAACACAGGAG: -0.459
CAAGUCCUGUGCUACACAUCGUAUGUACCGAAUCGGGAAAAAGGGUGGGUUUGGGAAAGUAUUAUGUUACGCCGUUCGGAUCUGCACUUC: -1.02
GUCCUGUGCUACACAUCGUAUGUACCGAAUCGGUUUUUGGGGUUUUUGGGUUUUUGGGAAAGUAUUAUGUUACGCCGUUCGGAUCUGCAC: -0.159
ACCAUGCAGGUGGGCAUCUUUGGGAAGUGGGGCAAGGGGGGGAUAGGGAGGGGGGUAACACUUUGGGAACAGGUGGUCCCAGGUCGUUAC: 0.367
UGGGAGGUGGAUUUUGUUUGUUUUUUUAGCUCAUUUCCAGGGGUGGGAAUUUUUUUUUAAUAUGUGUCAUGAAUAAAGUUGUUUUUGAAA: 0.286
AGUCCUGUGCUACACAUCGUAUGUACCGAAUCGGUUUUUGGGUUUUUGGUUUUUGGGAAAGUAUUAUGUUACGCCGUUCGGAUCUGCACU: -0.994
GUCCUGUGCUACACAUCGUAUGUACCGAAUCGGGGAAAAAGGGGUUUUUGGGGAGGGGAAAGUAUUAUGUUACGCCGUUCGGAUCUGCAC: -0.646
UCAAGUCCUGUGCUACACAUCGUAUGUACCGAAUCGGGGCGGGGCGGGGCGGGGAAAGUAUUAUGUUACGCCGUUCGGAUCUGCACUUCC: 0.0919
UGUGCUACACAUCGUAUGUACCGAAUCGGGGCCCCCCCGGGCCCCCCCGGGCCCCCCCGGGGAAAGUAUUAUGUUACGCCGUUCGGAUCU: 0.0912
AAGUCCUGUGCUACACAUCGUAUGUACCGAAUCGGGGCCCGGGCCCGGGGCCCGGGGAAAGUAUUAUGUUACGCCGUUCGGAUCUGCACU: -0.353

Single results of other studies
PhoQ, residues 284 288 289 292 302 303 HSSMNL — fold induction (PhoP, residues 12 14 15 18 19 NFFVT (Escherichia coli, UniProt P23836); Sort-seq, item: YFP reporter; E. coli; PhoQ-PhoP variant library, with: 10 µM Mg2+; relative to: high Mg2+ state, higher = stronger signaling): 1.05

For quick reference, copied from above (series 1):
GACGATTGCAGACTGGAGACGTGCTAG: -0.562 z-score
GACGGTATCCTTATCTTGACGTGCTAG: -0.0185 z-score
